Measured values gathered from unrelated publications.
Compare with care: the assays were run in different laboratories.
Technique: shake flask

CC(C)(C)C12CC(CN3CCN(C(c4ccccc4)c4ccc(Cl)cc4)CC3)(C1)C2 (stereo not shown)
logD (PBS; pH 7.4): 3.3

CC1=C(CCO)C2=[N+]3C1=Cc1c(CCO)c(C)c4[n]1[Fe-2]31[n]3c(c(C)c(CCC(=O)O)c3=CC3=[N+]1C(=C4)C(C)=C3CCC(=O)O)=C2 (stereo not shown)
logD (aqueous buffer; pH 9): 0.12

O=c1c2sccc2n(CC2COc3ccccc3O2)c(=O)n1O (stereo not shown)
logD (aqueous buffer; pH 7.4): 1.4

O=C1c2ccc3c4ccc5c6c(ccc(c7ccc(c2c37)C(=O)N1CCN1CCCCC1)c64)C(=O)N(CCN1CCCCC1)C5=O
logD (aqueous buffer; pH 8): 2.03

NC(=O)CN(Cc1ccccc1)C(=O)CN(CCOc1cc(-c2ccccn2)nc(-c2ccccn2)c1)C(=O)CNCc1ccccn1
logD (PBS; pH 7.4): 0.519

O=C(O)C(Cc1c[nH]cn1)N1C(=O)c2ccc3c4ccc5c6c(ccc(c7ccc(c2c37)C1=O)c64)C(=O)N(CCN1CCCCC1)C5=O (stereo not shown)
logD (aqueous buffer; pH 6): 2.42

O=c1c2ccccc2n(CC2CC2)c(=O)n1O
logD (aqueous buffer; pH 7.4): 0.8

CC(C)C[C@@H]1NC(=O)[C@H](C(C)C)NC(=O)[C@H](Cc2c[nH]c3ccccc23)NC(=O)[C@@H]2CSSC[C@H](NC(=O)[C@H](Cc3ccc(O)cc3)NC(=O)[C@H](C(C)C)NC(=O)[C@H](CCCNC(=N)N)NC(=O)CNC(=O)[C@H]3CCCN3C1=O)C(=O)N[C@@H](CCC(N)=O)C(=O)N1CCC[C@H]1C(=O)NCC(=O)N[C@@H](Cc1c[nH]c3ccccc13)C(=O)N2
logD (aqueous buffer; pH 7.4): 4.18

CCOC(=O)C12CC(N)(C1)C2
logD (PBS; pH 7.4): 0.1

[11CH3]N(Cc1ccc(/C=C/C(=O)NO)cc1)CC12CC3CC(CC(C3)C1)C2
logD (aqueous buffer; pH 7.4): 2.03

Some of these lines once more:
O=c1c2sccc2n(CC2COc3ccccc3O2)c(=O)n1O (stereo not shown)
logD (aqueous buffer; pH 7.4): 1.4
